Results collected from several papers.
A part holds a random share of what one study measured. Changes are numbered by the printed parent chain.

Study 1
Target: RNA binding protein fox-1 homolog 2, RRM domain, GST-SBP tag (RBFOX2, Homo sapiens, UniProt O43251-10, residues 100-194)
Technique: RNA Bind-n-Seq
Molecule type: RNA
Medium: in vitro
Tested at: 365 nM
Setting: natural RNA segment, single round, ends assumed
Baseline: no-protein control
Reading: higher = stronger binding
All sequences stand within: GGGAGUUCUACAGUCCGACGAUC … UGGAAUUCUCGGGUGCCAA
Construct (chain): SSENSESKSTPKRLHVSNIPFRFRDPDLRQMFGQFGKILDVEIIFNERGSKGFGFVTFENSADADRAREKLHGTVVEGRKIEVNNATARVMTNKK
Oligonucleotide | RBNS enrichment (R)
AUCUGAUUUGUAAUUACAAUUUUGGAAUUCUCUGUUUUAGUUGCUGAGGCCUGAGUUUUCUGGCUCUUAAAGCAUAGAUCAUUUCACCUGAUGUUUUUGAAGCAUCCUAA | 0.57
GCCAGAUGAGGCUAACAAGACCACAGUAGCCCCCUUCCCAGGUACCACACUGUCCCUGGAGAUCCCUCCAGCCUAGCCCUGCUAUAGAUCUGCUCUAGACUGUGAAAUCA | 0.328
ACCAGGAGCUAAACUGAGAGGCUAAACUGUGUCAUGAAGCGCGUUGGAAACAGACUUCUGCCUACAUCGAGUCCUACGAAUUGGGGUUGUAUUGAUGUCACUCUGGUGCC | 0.525
AUUAUAUUCUAAUGCUAAAUCACUUGGCAAGAGUGUAUUUUAAUGAUGCCUAAUUUCUCUAUGUUCUGUUUGAAGGUUUCUGUCCAGAUAAAAUUGUCUUUUGAAAUUCA | 0.525
CAGUGGGCAGGGGUGGCAGAGGACACGAGCAGCCACUGCCCGUACCCCCUCUCCUCUCUGUAAGCCCAUGCCCUGUCUUCCCAGGGACUUGUGAGCCUCUUCCCUCGACG | 0.325
GUUGUAAAGAAAAACAAAAACAAAAAAACAAAAACAAAAACAAAAAAAACAAAAUGGAAAAAGUCACAAAAAAGUUUGUAUAAAGACGUAUUUUUGUACUACAUGGGGAC | 1.71
UAUUAGUUUUUUAACCUGCAAUUUGCCUCAGCAACAAAGAAAAAGUGAAUUUUUAAUGCUGAAGAUAAAGUAAGCUAAAGUACCAGCAGAAGCCUUGGCUAUUUAUAGCA | 0.638
AAUACCUGAUAUAUUAAAAUGUAGUGCCUGUGAAAUCUGUAUUAUAUUGCUCUUCUGAAGUAAGAUUUUUCUACACCGGUAGCCUUCGCUGUCUGUCAGUCAGGACCUUC | 4.44
GAAUGUUACAAUGGUAAAAUGAGUGAUCUCAAAUCCACUGACAGAUAUAAAAUAGGCUUAGAGAGGAAAAGCUGCCUCUGGUCAAGUAGAUCAUGGCAGCAUGAAUUCCA | 0.325
GUUAUUUUGGACAACAUAAAAUUCAGGAAUGUUUUAUUUAGCCUUGGUUUCUAGAAGGAAGGGAAAUAAUAUUUCUUGAGCAUUUACUAGGGUGUUGCGUGCUGUGCUAA | 1.62
CAUUCUUGUAUUUGACUAUUUAAUCCUUUCUACUUGUCGCUAAAUAUAAUUGUUUCAGUCCUAUGGCAUGGUGAUAGCAUAUGUGUUCAGGUUUAUAGCUGUUGUGUUUA | 0.669
GACAAAACAUCUAUACGUACAGUACCACUAAUAAAUGUUGAGCUCCUGCUGUCCUGUUGGAAAGUUCUGGAAGUUAAGGACGGAGAGUGCUGUUUGUAAUGCAGUCUUCC | 0.43

Study 2
Target: Interferon regulatory factor 7, full length, phosphomimetic (IRF7, Homo sapiens, UniProt Q92985, residues 1-503, S101K/S471D/S472D/S475D/S476D/S477D/S483D/S484D/S487D)
Technique: protein-binding microarray
Molecule type: double-stranded DNA, one strand shown
Medium: in vitro
Tested at: 250 nM
Setting: 60-bp whole probe
With: salmon DNA 0.4 mg/ml
Baseline: random background probes
Reading: higher = stronger binding
All sequences stand within: GCCTAGCAC … GTCTTGATTCGCTTGACGCTGCTG
Target sequence (chain): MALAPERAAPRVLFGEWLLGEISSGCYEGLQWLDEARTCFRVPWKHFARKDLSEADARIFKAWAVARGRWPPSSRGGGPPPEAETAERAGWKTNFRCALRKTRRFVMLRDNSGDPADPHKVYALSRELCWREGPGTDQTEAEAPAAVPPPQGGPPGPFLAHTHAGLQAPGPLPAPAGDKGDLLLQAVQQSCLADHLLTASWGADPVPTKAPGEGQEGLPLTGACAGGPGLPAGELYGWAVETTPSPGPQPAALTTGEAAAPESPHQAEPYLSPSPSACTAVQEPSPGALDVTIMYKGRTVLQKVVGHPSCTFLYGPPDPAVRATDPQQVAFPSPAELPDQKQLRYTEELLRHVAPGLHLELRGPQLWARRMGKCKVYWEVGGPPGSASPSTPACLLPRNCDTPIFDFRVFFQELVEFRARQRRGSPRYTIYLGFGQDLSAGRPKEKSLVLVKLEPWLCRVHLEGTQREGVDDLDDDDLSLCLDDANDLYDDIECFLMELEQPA
Oligonucleotide | log fluorescence [z-score]
TTTCATATATATATGAATATGTGCTAG | 1.22
TACGGTATCGACTATCGGGACGTGCTA | 0.0531
TCTCATTCCAATTCTTTTTATGTGCTA | 1.16
GACGAACTGAGTTTCTAGACGTGCTAG | 0.547
TAGAAACTCGTGTTTTTCTCCGTGCTA | 0.0839
TTAGGGTTCGGGTATCGGTTAGTGCTA | 1.42
GACGATATCGGGTTTAGAGACGTGCTA | -0.278
TCATGAAGCGCTTCTCGAACTGTGCTA | -0.391
TTTGACATCTTCATCAACTAGTGCTAG | 0.00122
TTAGAACTGCGGACTGGATTAGTGCTA | -0.326
TTAGATCGCAGTATCGATTAGTGCTAG | 0.546
TTAGGACTGCTTTTCCTTCAGTGCTAG | 1.17
TTAGATCTCACTATCGATTAGTGCTAG | 0.172
TTAGATATCGAGACTGGATTAGTGCTA | 0.432
TTAGGTATCGGGTAGCGGTTAGTGCTA | 0.599
TGGTTTTACTTTCTATCTCTGTGCTAG | 3.75
ATAGAACTGGGGTTTCGATTAGTGCTA | 5.96
TTAGATTTCGGGTTACGATTAGTGCTA | 3.5
GACGCACTGAGTTTCGAGACGTGCTAG | 3.31
GACGGTTTAGACTTTCGGGACGTGCTA | 0.197
TTAGGACTGGACTTACGGTTAGTGCTA | -0.432
TTAGGTAACCTTATCCTTTAGTGCTAG | -0.0265
TCACCTTTTGCTTTACTACTGTGCTAG | 0.974

Study 3
Target: ABI1, truncated, D143A, DHFR fusion (Arabidopsis thaliana)
Technique: DHFR PCA, deep sequencing
Medium: yeast
Setting: methotrexate growth selection, single substitutions
With: (+)-ABA 0.11 µM
Baseline: wild-type fitted maximum
Reading: higher = stronger binding
Starting sequence: PYL1, truncated, DHFR fusion (Arabidopsis thaliana); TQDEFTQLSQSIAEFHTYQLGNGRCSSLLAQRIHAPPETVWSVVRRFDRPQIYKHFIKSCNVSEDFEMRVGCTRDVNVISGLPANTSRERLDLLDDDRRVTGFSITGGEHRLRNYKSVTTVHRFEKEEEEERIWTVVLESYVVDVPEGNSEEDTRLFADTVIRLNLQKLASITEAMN; partner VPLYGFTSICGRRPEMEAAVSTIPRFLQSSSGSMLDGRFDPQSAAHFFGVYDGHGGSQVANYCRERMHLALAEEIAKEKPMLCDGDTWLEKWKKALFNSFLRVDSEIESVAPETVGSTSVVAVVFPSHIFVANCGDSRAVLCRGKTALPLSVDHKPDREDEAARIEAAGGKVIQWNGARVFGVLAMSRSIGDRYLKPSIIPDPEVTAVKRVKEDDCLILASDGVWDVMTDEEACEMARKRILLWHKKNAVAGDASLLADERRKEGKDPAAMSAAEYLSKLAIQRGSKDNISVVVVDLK
Variant | relative binding score
F47R | -2.52%
G81N | 31.7%
C25K | -9.14%
Y18I | 0.00227%
I133E | 63.4%
L93T | 5.1%
M68T | 5.24%
E147T | 7.84%
S26E | -1.38%
R69W | -4.03%
S171W | 11.7%
E64F | -9.01%
G71S | 0.213%
Q10T | 31.7%

Study 4
Target: CCNF, cyclin fold, Cln2 fusion (human)
Technique: yeast growth competition, sequencing
Medium: yeast
Setting: strong parent motif
Baseline: not given
Reading: higher = stronger binding
Starting sequence: RB1 docking peptide (human); PKPLKKLRFDIEG
Variant | normalised enrichment score
F9G | 1.22
K2Y | 2.71
E12T | 1.31
L7G | 1.12
P1C | 2.21
F9N | 1.14
K5Q | 1.63
K5I | 0.77
D10G | 2.81
L4F | 1.99
L4M | 3.31
P1L | 2.07
L7C | 0.88
E12R | 1.12
F9I | -0.525
K2R | 1.04
I11W | 1.58
F9V | 0.701
R8V | 2.72
K5Y | 1.01
G13V | 1.86
G13H | 0.743

Study 5
Target: RING finger protein unkempt homolog, zinc fingers 1-6, GST-SBP tag (UNK, Homo sapiens, UniProt Q9C0B0, residues 30-357)
UniProt Q9C0B0, sequence (30-357, looked up): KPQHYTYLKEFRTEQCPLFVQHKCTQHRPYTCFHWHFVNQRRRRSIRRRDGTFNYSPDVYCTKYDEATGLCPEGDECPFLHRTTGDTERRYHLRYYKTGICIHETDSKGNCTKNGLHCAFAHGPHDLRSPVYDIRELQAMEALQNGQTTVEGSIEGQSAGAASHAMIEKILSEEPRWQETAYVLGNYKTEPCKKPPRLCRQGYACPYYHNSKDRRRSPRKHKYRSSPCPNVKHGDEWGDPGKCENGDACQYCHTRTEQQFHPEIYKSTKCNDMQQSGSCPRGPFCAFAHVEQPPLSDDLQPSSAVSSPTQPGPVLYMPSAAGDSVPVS
Technique: RNA Bind-n-Seq
Molecule type: RNA
Medium: in vitro
Tested at: not given
Setting: RNA with constant flanks, human and mouse sites, ends assumed
Baseline: input RNA pool
Reading: higher = stronger binding
All sequences stand within: GGGAGUUCUACAGUCCGACGAUC … CAACAGAGGAUUGAGCAUCA
Oligonucleotide | bound/input enrichment
CCGGACGACGAGGCUGCCAUGGGCAUUAAAAGCUGUGACCCCAAAGGCCCUCUUAUGAUGUAUAUUUCCAAAAUGGUGCCAACCUCCGACAAAGGUCGGUUCUACGCCUUUGGACGAGUC | 0.132 ratio
GGAAAGUCCUGGCUGCCGGAACGCCUCAGUGAGGUAAAGUCUCUUGGCGUUUUGACUGGGACCAGCCCAGCCAUUCUCAGCCUCUCGACAUGUAAUUUCAUUUCUUUUACGAAAGCUCGU | 0.0603 ratio
AUCUUAAAAUGGCUUACCCUCCGGUUUUUCGACACCAAUACAAGCGUUCUAAUGAAAGCACUGGAAUAUUUAAAAUUGCUUUUCACCCUGCUGAGUGAGGAAGAGUAUCAUCUUACUGAG | 0.3 ratio
ACUAUGCUGGUGCACGGUCCUGUGACCAGUGCCCUCCGCCCCUUCUUUACACCACUGUCCUACCUACAGGAAUUUAAUAUUUUUAAAGUUUUACAAUACUGUAUAUUCAAAGAUUUGUUU | 1.72 ratio
UUUAAGACUUUAUAUUGUGUUUCAAACAAAGAAAGCCCUAACCAAAACAAUACUACCCACUUAGAUAUUGCUGCAGUUCAAGGUUUUUCAGUCAUCUUGGACUUCCUGUAUUCUGGGAAC | 0.468 ratio
ACCACGCAUCUGUUUUGUCCCACAAUGCGCUUUUCUCUCCCAAAUCCCGAUUUCUGCUGUCAUAGCCUCUAUUCAAUUUUUAUUUAUUGUCUGCCCUCCACUUAUACAAUCGUAGAGAGC | 5.21 ratio
CCAGGAGUGUAACUCUCUGAGUGAUGUGCUGGACACAUUUUCAAAAGCACCUACAUUUCCUGGUAGUAACUAUUUCUUAGCAAUGUGGAUAAUUGCCAAAAGGAUAUCUGAAGACAAGAG | 0.998 ratio
CAGGAAACCCAUAUUGAUUUUGUAAUUAAAUGUCAAGCCUGUGGAUUGUUUUGAGCUUGGUAGUUGAUGAGCAUUUCCGUACAGAGGCCUCACCUUGAGCACAGCACUGUCAGGAGGGCG | 0.717 ratio
AAUGGGAAGAAUGAGAGAAGUCAUAUGCCCGGCACAUAUUUGACUACAGUCAUUCCUUAUGAGAAAAAAAACGGACCACCGUCUGUUGAAGAUCUUCAAAUAUUAACAAAAAUUCUUCGU | 0.221 ratio
AGUGUGGACAAAGGAUGCAAAGCUGUGCUGUGGGCACAGUACUGACGGGGCUCUCAGGGCUGGGAGGACCCCAGUGCCCUCCUCAGAAGAAGCACAUGGGCUCCUGCAGCCCUGUCCUGG | 0.0997 ratio
AACAUAUUAGAUCUUUGUACAGCAUUGUCUGCUUUGUCAGGAAUACCUGCAGAUAAGAUGAUAGUUACUGAUAUAUACAAUCAUAGAUUUCACAGAAUAUUCGCUAUGGAUGAAAACCUU | 0.994 ratio

A few entries again (study 2):
Oligonucleotide | log fluorescence [z-score]
TTTGACATCTTCATCAACTAGTGCTAG | 0.00122
GACGATATCGGGTTTAGAGACGTGCTA | -0.278
TCATGAAGCGCTTCTCGAACTGTGCTA | -0.391
ATAGAACTGGGGTTTCGATTAGTGCTA | 5.96
TTAGATCTCACTATCGATTAGTGCTAG | 0.172
TTAGGTATCGGGTAGCGGTTAGTGCTA | 0.599
TTAGGTAACCTTATCCTTTAGTGCTAG | -0.0265
